# Published values collected from several papers.
# Parts stem from different laboratories: compare values within a part only. Several values in a cell are separate wells, animals, samples, runs or records.
# Chain of UniProt Q5XXA6 (whole entry, unmodified, looked up): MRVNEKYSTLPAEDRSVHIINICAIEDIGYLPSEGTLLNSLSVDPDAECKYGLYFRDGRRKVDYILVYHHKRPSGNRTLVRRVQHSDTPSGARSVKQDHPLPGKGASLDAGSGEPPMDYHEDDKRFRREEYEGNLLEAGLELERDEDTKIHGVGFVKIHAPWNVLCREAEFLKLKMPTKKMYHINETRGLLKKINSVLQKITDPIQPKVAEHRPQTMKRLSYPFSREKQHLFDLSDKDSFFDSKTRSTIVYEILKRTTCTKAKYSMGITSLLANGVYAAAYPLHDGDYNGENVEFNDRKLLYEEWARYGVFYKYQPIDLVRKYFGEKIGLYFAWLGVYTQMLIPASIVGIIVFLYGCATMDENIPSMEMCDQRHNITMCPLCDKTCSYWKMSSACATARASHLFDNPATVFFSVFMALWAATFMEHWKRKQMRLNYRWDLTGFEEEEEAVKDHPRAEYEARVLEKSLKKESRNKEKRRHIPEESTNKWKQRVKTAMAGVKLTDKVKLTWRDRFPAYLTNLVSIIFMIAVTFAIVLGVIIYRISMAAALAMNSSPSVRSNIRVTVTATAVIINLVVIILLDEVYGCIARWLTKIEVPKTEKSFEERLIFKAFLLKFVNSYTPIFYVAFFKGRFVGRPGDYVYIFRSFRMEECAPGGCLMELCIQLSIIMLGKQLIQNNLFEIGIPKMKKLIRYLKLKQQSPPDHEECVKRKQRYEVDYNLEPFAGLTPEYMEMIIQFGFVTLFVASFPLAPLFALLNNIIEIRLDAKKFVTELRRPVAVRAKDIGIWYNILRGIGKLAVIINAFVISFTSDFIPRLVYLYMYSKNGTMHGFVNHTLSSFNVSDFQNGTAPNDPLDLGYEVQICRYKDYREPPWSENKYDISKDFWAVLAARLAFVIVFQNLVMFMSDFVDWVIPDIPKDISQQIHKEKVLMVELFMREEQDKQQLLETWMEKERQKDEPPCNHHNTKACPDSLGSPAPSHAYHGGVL
# Chain of UniProt Q9HC98 (whole entry, looked up): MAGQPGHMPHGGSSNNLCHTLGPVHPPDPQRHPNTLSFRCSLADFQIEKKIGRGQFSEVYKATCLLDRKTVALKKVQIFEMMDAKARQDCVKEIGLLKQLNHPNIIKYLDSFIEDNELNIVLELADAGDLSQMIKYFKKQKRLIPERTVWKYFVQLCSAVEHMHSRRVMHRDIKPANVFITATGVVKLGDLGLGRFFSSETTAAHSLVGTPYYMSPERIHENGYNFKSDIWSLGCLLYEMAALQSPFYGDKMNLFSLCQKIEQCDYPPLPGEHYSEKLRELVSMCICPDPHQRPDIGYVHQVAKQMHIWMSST

# Set 1
# Structure (SMILES): CC(C)C[C@H]1NC(=O)[C@H](N(C)C(=O)[C@@H](CC2CCC2)NC(=O)[C@H]2C[C@H](F)CN2C(=O)C2(C(F)(F)F)CC(F)(F)C2)CCCCNC(=O)C2(CC2)NC(=O)[C@@H](Cc2cc(Cl)ccc2Cl)N(C)C1=O
# Technique: Vi-Cell counting
# Time: 6 days
# Reference: DMSO
cell line,setting,cell count
A549,600 nM,0.95 and 0.963 and 0.873
NCI-H1299,60 nM,1.21 and 0.95 and 1.06
HCC4006,60 nM,0.909 and 0.957 and 1.06
A549,20 nM,0.932 and 0.915 and 0.855
HCC4006,600 nM,0.937 and 0.975 and 1

# Set 2
# Cell line: HaCaT
# Concentration: 100 µM
# Time: 18 h
Compound,viability [%]
O=C(OCc1ccccc1)c1ccccc1,47.4
CC(C)OC(=O)CCC/C=C\C[C@@H]1[C@@H](CC[C@@H](O)CCc2ccccc2)[C@H](O)C[C@@H]1O,15.7
COc1ccc2[nH]c(SCc3ncc(C)c(OC)c3C)nc2c1,72.6
CCCCC1(COC(=O)CCC(=O)O)C(=O)N(c2ccccc2)N(c2ccccc2)C1=O,117
COc1cc(C[C@H]2C(=O)OC[C@@H]2Cc2ccc(OC)c(OC)c2)ccc1O,115
Cc1cnc(NC(=O)C2=C(O)c3ccccc3S(=O)(=O)N2C)s1,65.5
CO/N=C(\C(=O)N[C@@H]1C(=O)N2C(C(=O)OCOC(=O)C(C)(C)C)=C(/C=C\c3scnc3C)CS[C@H]12)c1csc(N)n1,91.4
CN1CCOC(c2ccccc2)c2ccccc2C1 (centres unmarked),107

# Set 3
# Medium: 1,9-decadiene/PBS
# pH: 7.4
Structure (SMILES),logD
CC(C)C[C@@H]1NC(=O)[C@H](C)NC(=O)[C@H](CCC(=O)N2CCCC2)NC(=O)[C@H](CCC(=O)N2CCCC2)NC(=O)[C@@H](CCC(=O)N2CCCC2)NC(=O)[C@H](CC(C)C)NC(=O)[C@@H](CC(C)C)NC1=O,-2.64
CC(C)C[C@@H]1NC(=O)[C@H](CC(C)C)NC(=O)[C@@H](C(C)C)NC(=O)[C@@H](C)NC(=O)[C@H](C(C)C)NC(=O)[C@H](Cc2cscn2)NC(=O)[C@H](C)NC1=O,-2.65
CC(C)C[C@@H]1NC(=O)[C@H](CC(C)C)NC(=O)[C@H](CC(C)C)NC(=O)[C@H](Cc2cscn2)NC(=O)[C@@H](Cc2cscn2)NC(=O)[C@H](Cc2cscn2)NC(=O)[C@H](CCC(=O)N2CCCC2)NC1=O,-2.21
CC(C)C[C@@H]1NC(=O)[C@H](CC(C)C)NC(=O)[C@@H](CC(C)C)NC(=O)[C@H](CC(C)C)NC(=O)[C@@H](Cc2cscn2)NC(=O)[C@H](Cc2cscn2)NC(=O)[C@H](CCC(=O)N2CCCC2)NC1=O,-0.984
CC(C)C[C@@H]1NC(=O)[C@H](Cc2cscn2)NC(=O)[C@H](CCC(=O)N2CCCC2)NC(=O)[C@@H](CCC(=O)N2CCCC2)NC(=O)[C@H](CC(C)C)NC(=O)[C@@H](CC(C)C)NC(=O)[C@H](CC(C)C)NC1=O,-1.66
CC(C)C[C@@H]1NC(=O)[C@H](CCC(=O)N2CCCC2)NC(=O)[C@H](CCC(=O)N2CCCC2)NC(=O)[C@@H](Cc2cscn2)NC(=O)[C@H](CC(C)C)NC(=O)[C@@H](CC(C)C)NC(=O)[C@H](CC(C)C)NC1=O,-1.98
CC(C)C[C@@H]1NC(=O)[C@H](CC(C)C)NC(=O)[C@@H](CC(C)C)NC(=O)[C@H](CC(C)C)NC(=O)[C@@H](Cc2cscn2)NC(=O)[C@@H](CC(C)C)NC(=O)[C@H](C)NC1=O,0.372
CC(C)C[C@@H]1NC(=O)[C@H](CC(C)C)NC(=O)[C@@H](CC(C)C)NC(=O)[C@H](C)NC(=O)[C@@H](Cc2cscn2)NC(=O)[C@@H](CC(C)C)NC(=O)[C@H](C)NC1=O,-1.08

# Single results of other studies
# Mode: inhibitor
Compound,target,test,setting,how to read,quantity,result
C=CCc1ccc(O)c(-c2cc(CC=C)ccc2O)c1,"Anoctamin-1 (ANO1, Homo sapiens, UniProt Q5XXA6, del476-501)","chloride current, whole-cell voltage clamp","wild type at -100 mV, together with: 3 µM honokiol",reference: with over without honokiol,potency fold increase,1.86
COc1ccc2c(c[n+](C)c3c4cc5c(cc4ccc23)OCO5)c1OC,"NEK6 (Homo sapiens, UniProt Q9HC98)",enzyme activity,0.5 µM,reference: control,remaining activity,104%

# Excerpt of the above (set 1):
cell line,setting,cell count
HCC4006,600 nM,0.937 and 0.975 and 1
A549,600 nM,0.95 and 0.963 and 0.873
HCC4006,60 nM,0.909 and 0.957 and 1.06
